Results collected from several papers.
Organism: Escherichia coli

For `C[C@@H](O)[C@H]1C(=O)N2C(C(=O)O)=C(S[C@@H]3CN[C@H](C(=O)N(C)C)C3)[C@H](C)[C@H]12`, the MIC was 0.03 µg/mL (broth microdilution; ATCC 25922; compound alone).
`CNC(C)C1CCC(N)C(OC2C(N)CC(N)C(OC3OCC(C)(O)C(NC)C3O)C2O)O1` (stereo not drawn) has an MIC of 0.5 µg/mL (bacterial growth; ESBL clinical isolate JMI 1043856).
`CO[C@H]1/C=C/O[C@@]2(C)Oc3c(C)c(O)c4c(O)c(c(/C=N/Nc5ccc(C)c(Cl)c5)c(O)c4c3C2=O)NC(=O)/C(C)=C/C=C/[C@H](C)[C@H](O)[C@@H](C)[C@@H](O)[C@@H](C)[C@H](OC(C)=O)[C@H]1C` gave an MIC of 20 µM (ATCC 25922).
For `N=C(N)c1ccc(OCc2ccc(-c3ccccc3)cc2COc2ccc(C(=N)N)cc2)cc1`, the MIC was 25 µg/mL (W3110; in combination, checkerboard, added: rifampicin).
For `CO[C@H]1/C=C/O[C@@]2(C)Oc3c(C)c(O)c4c(O)c(c(/C=N/Nc5ccc(OC(F)(F)F)cc5)c(O)c4c3C2=O)NC(=O)/C(C)=C\C=C\[C@H](C)[C@H](O)[C@@H](C)[C@@H](O)[C@H](C)[C@H](OC(C)=O)[C@@H]1C`, the MIC was 20 µM (ATCC 25922).
`C[C@@H](O)[C@H]1C(=O)N2C(C(=O)O)=C(S[C@@H]3CN[C@H](C(=O)N(C)C)C3)[C@H](C)[C@H]12` has an MIC of < 0.125 µg/mL (DH5alpha pET28-lacUV5 control; compound alone).
With `C=C[C@]1(C)C[C@@H](OC(=O)CSCCN(CC)CC)[C@]2(C)[C@H](C)CC[C@]3(CCC(=O)[C@H]32)[C@@H](C)[C@@H]1O` the MIC was > 40 µM (ATCC 25922).
For `CC(C)Oc1c(NC(=O)c2ccc(NC(=O)[C@H](CC(N)=O)NC(=O)c3ccc(NC(=O)c4ccc(C#N)cc4)cc3)cc2)ccc(C(=O)N/N=C/c2ccc(C(=O)O)cc2)c1O`, the MIC was 0.01 µg/mL (BW25113; 18 h, 37 °C, irradiated at 365 nm, photostationary state).
The MIC of `CC1(C)SC2C(NC(=O)C(NC(=O)C3=C(O)CNC3=O)c3ccccc3)C(=O)N2C1C(=O)O` (stereo not drawn) is reported as 12.5 µg/mL (broth microdilution; ATCC 25922 wild type; no clavulanic acid).
`C[C@@H](O)[C@H]1C(=O)N2C(C(=O)O)=C(S[C@@H]3CN[C@H](C(=O)N(C)C)C3)[C@H](C)[C@H]12` gave an MIC of 0.002 µg/mL (broth microdilution; G92; 18 h).
For `CO[C@@H]1[C@@H](OC(C)=O)[C@H](C)[C@H](O)[C@H](C)[C@@H](O)[C@@H](C)/C=C/C=C(\C)C(=O)Nc2c(/C=N/N3CCN(C)CC3)c(O)c3c4c(c(C)c(O)c3c2O)O[C@](C)(O/C=C/[C@@H]1OC)C4=O`, the MIC was 20 µM (ATCC 25922).
The MIC of `COc1cc(C=O)ccc1OC1=C(Cl)C(=O)c2ccccc2C1=O` is reported as 10 µg/mL (broth microdilution; MTCC 405).
The MIC of `Cc1c(CN(C)C(=O)/C=C/c2cnc3c(c2)CC(NC(=O)OC(C)(C)C)C(=O)N3)oc2ccccc12` (stereo not drawn) is reported as > 32 µg/mL (broth microdilution; AR-0493).
For `NCC[C@H](O)C(=O)N[C@@H]1C[C@H](N)[C@@H](O[C@H]2O[C@H](CN)[C@@H](O)[C@H](O)[C@H]2O)[C@H](O)[C@H]1O[C@H]1O[C@H](CO)[C@@H](O)[C@H](N)[C@H]1O`, the MIC was 2 µg/mL (broth microdilution; ATCC 25922; ambient air).
For `C=C/C=C(\C)CC[C@@H]1C[C@@H](O)CC(=O)O1`, the MIC was 128 µg/mL (broth microdilution; KCTC 2571).
For `Cc1c(CN(C)C(=O)/C=C/c2cnc3c(c2)CC(CCN)C(=O)N3)oc2ccccc12.Cl` (stereo not drawn), the MIC was 2 µg/mL (broth microdilution; AR-0495).
For `CN(C)[C@@H]1C(O)=C(C(N)=O)C(=O)[C@@]2(O)C(O)=C3C(=O)c4c(O)cccc4[C@@](C)(O)[C@H]3C[C@@H]12`, the MIC was 900 µM (tetracycline-resistant (pBR322)).
`c1ccc2[nH]c(CNCC34CC5CC(CC(C5)C3)C4)nc2c1` gave an MIC of > 128 µg/mL (ATCC 25922).
`Cn1nnc(-c2ccc(-c3ccc(N4C[C@H](COP(=O)(O)O)OC4=O)cc3F)cn2)n1` has an MIC of > 80 µM (broth microdilution; compound alone).
The MIC of `C[C@H]1c2cccc(O)c2C(=O)C2=C(O)[C@]3(O)C(=O)C(C(N)=O)=C(O)[C@@H](N(C)C)[C@@H]3[C@@H](O)[C@@H]21` is reported as 4 µg/mL (broth microdilution; 18 h).
For `CO[C@H]1/C=C/O[C@@]2(C)Oc3c(C)c(O)c4c(O)c(c(/C=N/N5CCN(C)CC5)c(O)c4c3C2=O)NC(=O)/C(C)=C\C=C\[C@H](C)[C@H](O)[C@@H](C)[C@@H](O)[C@@H](C)[C@H](OC(C)=O)[C@@H]1C`, the MIC was 32 µM (broth microdilution OD600; Mueller-Hinton broth; 24 h, 37 °C, added: 2.5 mM CaCl2).
For `CN(C)c1ccc2nc3ccc(=[N+](C)C)cc-3sc2c1`, the MIC was > 128 µM (ATCC BAA-196, resistant; 18 h, 37 °C, dark).
`CCn1cc(C(=O)O)c(=O)c2cc(F)c(N3CCNCC3)cc21` has an MIC of 0.25 µg/mL (broth microdilution; G92; 18 h).
`N=C(N)c1ccc(OCc2ccc3ccc(COc4ccc(C(=N)N)cc4)cc3c2)cc1` gave an MIC of > 200 µg/mL (BW25113; compound alone, added: erythromycin checkerboard).
`CC(C)Oc1c(NC(=O)c2ccc(N3C(=O)C[C@H](NC(=O)c4cc(F)c(/N=N/c5c(F)cccc5F)c(F)c4)C3=O)cc2)ccc(C(=O)N/N=C/c2c(Cl)cncc2Cl)c1O` has an MIC of > 6.4 µg/mL (BW25113; dark ground state).
`CO[C@@H]1CC(=O)O[C@H](C)C/C=C/C=C/[C@H](O[C@H]2CC[C@H](N(C)C)[C@@H](C)O2)[C@H](C)C[C@H](CC=O)[C@H](O[C@@H]2O[C@H](C)[C@@H](O[C@H]3C[C@@](C)(O)[C@@H](O)[C@H](C)O3)[C@H](N(C)C)[C@H]2O)C1` gave an MIC of 320 µM (ATCC 25922).
With `O=C(N[C@H](CO)[C@H](O)c1ccc([N+](=O)[O-])cc1)C(Cl)Cl` the MIC was 4 µg/mL (broth microdilution; ATCC 25922; ambient air).
With `CC1(C)S[C@@H]2[C@H](NC(=O)[C@H](N)c3ccccc3)C(=O)N2[C@H]1C(=O)O` the MIC was 8.6 µg/mL (DH5α).
The MIC of `NCCCC[C@H](NC(=O)[C@H](Cc1ccccc1)NC(=O)[C@H](CCC(N)=O)NC(=O)[C@H](Cc1ccccc1)NC(=O)[C@H](CCC(N)=O)NC(=O)[C@@H](N)Cc1ccccc1)C(N)=O` is reported as 1000 µM (broth microdilution, optical density).
For `Cc1cc(-c2cn[nH]c2-c2cccc(OCc3cccc(C#N)c3)c2)cc(C)n1`, the MIC was 1 µg/mL (broth microdilution; AR-0349 colistin-resistant).
With `CC(C)Oc1c(NC(=O)c2ccc(N3C(=O)C[C@H](NC(=O)c4ccc(NC(=O)c5ccc(C#N)cc5)cc4)C3=O)cc2)ccc(C(=O)N/N=C/c2cnn(C)c2)c1O` the MIC was 0.33 µg/mL (BW25113; 18 h, 37 °C, irradiated at 365 nm, photostationary state).
`CO/N=C(\C(=O)N[C@@H]1C(=O)N2C(C(=O)[O-])=C(C[N+]3(C)CCCC3)CS[C@H]12)c1csc(N)n1` gave an MIC of 0.03 µg/mL (broth microdilution; ATCC 25922; ambient air).
The MIC of `CC[C@H]1OC(=O)[C@H](C)[C@@H](O[C@H]2C[C@@](C)(OC)[C@@H](O)[C@H](C)O2)[C@H](C)[C@@H](O[C@@H]2O[C@H](C)C[C@H](N(C)C)[C@H]2O)[C@](C)(O)C[C@@H](C)CN[C@H](C)[C@@H](O)[C@]1(C)O` is reported as 10 µM (ATCC 25922).
`CC[C@H](C)[C@H](NC(=O)[C@H](CCCCN)NC(=O)[C@H](CCC(=O)O)NC(=O)CNC(=O)CNC(=O)[C@H](CCCCN)NC(=O)[C@H](CCCNC(=N)N)NC(=O)[C@H](CC(C)C)NC(=O)[C@H](CC(C)C)NC(=O)CN)C(=O)NCC(=O)N[C@@H](CCC(=O)O)C(=O)N[C@@H](CCCCN)C(=O)N[C@@H](CC(C)C)C(=O)N[C@@H](CCCCN)C(=O)N[C@@H](CCCCN)C(=O)N[C@H](C(=O)NCC(=O)N[C@@H](CCC(N)=O)C(=O)N[C@@H](CCCCN)C(=O)N[C@H](C(=O)N[C@@H](CCCCN)C(=O)N[C@@H](CC(N)=O)C(=O)N[C@@H](Cc1ccccc1)C(=O)N[C@@H](Cc1ccccc1)C(=O)N[C@@H](CCC(N)=O)C(=O)N[C@@H](CCCCN)C(=O)N[C@@H](CC(C)C)C(=O)N[C@H](C(=O)N1CCC[C@H]1C(=O)N[C@@H](CCC(N)=O)C(=O)N1CCC[C@H]1C(=O)N[C@@H](CCC(=O)O)C(=O)N[C@@H](CCC(N)=O)C(=O)O)C(C)C)[C@@H](C)CC)[C@@H](C)CC` has an MIC of 33 µM (broth microdilution; ATCC 25922).
For `CCN1CCN(C(=O)N[C@@H](C(=O)N[C@@H]2C(=O)N3[C@@H]2SC(C)(C)[C@@H]3C(=O)O)c2ccccc2)C(=O)C1=O`, the MIC was > 400 µM (broth microdilution; 24 h, 37 °C, clinical isolate).
For `CO/N=C(\C(=O)N[C@@H]1C(=O)N2C(C(=O)O)=C(COC(C)=O)CS[C@H]12)c1csc(N)n1`, the MIC was 0.06 µg/mL (broth microdilution; ATCC 25922; 5% CO2).
With `CO/N=C(\C(=O)N[C@@H]1C(=O)N2C(C(=O)O)=C(CSc3nc(=O)c(O)nn3C)CS[C@H]12)c1csc(N)n1` the MIC was 0.0313 µg/mL (broth microdilution; 18 h).
With `N=C(N)c1ccc(OCCCCCOc2ccc(C(=N)N)cc2)cc1` the MIC was 200 µg/mL (BW25113; compound alone, rifampicin checkerboard).
The MIC of `O=C(O)c1cn(C2CC2)c2cc(N3CCC(O)(COc4ccc(N5C[C@H](CO)OC5=O)cc4F)CC3)c(F)cc2c1=O` is reported as 0.02 µM (broth microdilution; compound alone).
`N=C(N)c1ccc(OCCS(=O)(=O)CCOc2ccc(C(=N)N)cc2)cc1` gave an MIC of > 200 µg/mL (BW25113; compound alone, rifampicin checkerboard).
`C[C@@H](O)[C@H]1C(=O)N2C(C(=O)O)=C(S[C@@H]3CN[C@H](C(=O)N(C)C)C3)[C@H](C)[C@H]12` has an MIC of < 2 µg/mL (25922).
The MIC of `N=C(N)c1ccccc1OCc1cccc(COc2ccccc2C(=N)N)c1` is reported as > 200 µg/mL (BW25113; compound alone, rifampicin checkerboard).
With `CC[C@H](C)CCCCC(=O)N[C@@H](CCN)C(=O)N[C@H](C(=O)N[C@@H](CCN)C(=O)N[C@H]1CCNC(=O)[C@H]([C@@H](C)O)NC(=O)[C@H](CCN)NC(=O)[C@H](CCN)NC(=O)[C@H](CC(C)C)NC(=O)[C@@H](CC(C)C)NC(=O)[C@H](CCN)NC1=O)[C@@H](C)O` the MIC was 0.125 µg/mL (broth microdilution; ATCC 35218, cation-adjusted Mueller-Hinton broth; 18 to 20 h, 37 °C, 0.002% polysorbate 80).
For `N=C(N)c1ccc(OCc2cccc(COc3ccc(C(=N)N)cc3)c2)cc1`, the MIC was 100 µg/mL (552100; compound alone).
`O=C(Cc1ccccc1)N[C@@H]1C(=O)N2C(C(=O)O)=C(CSc3cccc4cccnc34)CS[C@H]12` gave an MIC of 128 µg/mL (25922).

Excerpt of the above:
The MIC of `COc1cc(C=O)ccc1OC1=C(Cl)C(=O)c2ccccc2C1=O` is reported as 10 µg/mL (broth microdilution; MTCC 405).
The MIC of `Cc1c(CN(C)C(=O)/C=C/c2cnc3c(c2)CC(NC(=O)OC(C)(C)C)C(=O)N3)oc2ccccc12` (stereo not drawn) is reported as > 32 µg/mL (broth microdilution; AR-0493).
For `NCC[C@H](O)C(=O)N[C@@H]1C[C@H](N)[C@@H](O[C@H]2O[C@H](CN)[C@@H](O)[C@H](O)[C@H]2O)[C@H](O)[C@H]1O[C@H]1O[C@H](CO)[C@@H](O)[C@H](N)[C@H]1O`, the MIC was 2 µg/mL (broth microdilution; ATCC 25922; ambient air).
